Results collected from several papers.
Each line is one published result; not all experiments were run side by side. Several values in a cell are separate wells, animals, samples, runs or records. ± marks the error that the study gave.
DRD2: D(2) dopamine receptor (DRD2, Homo sapiens, UniProt P14416)
Sequence of UniProt P14416 (whole entry, looked up): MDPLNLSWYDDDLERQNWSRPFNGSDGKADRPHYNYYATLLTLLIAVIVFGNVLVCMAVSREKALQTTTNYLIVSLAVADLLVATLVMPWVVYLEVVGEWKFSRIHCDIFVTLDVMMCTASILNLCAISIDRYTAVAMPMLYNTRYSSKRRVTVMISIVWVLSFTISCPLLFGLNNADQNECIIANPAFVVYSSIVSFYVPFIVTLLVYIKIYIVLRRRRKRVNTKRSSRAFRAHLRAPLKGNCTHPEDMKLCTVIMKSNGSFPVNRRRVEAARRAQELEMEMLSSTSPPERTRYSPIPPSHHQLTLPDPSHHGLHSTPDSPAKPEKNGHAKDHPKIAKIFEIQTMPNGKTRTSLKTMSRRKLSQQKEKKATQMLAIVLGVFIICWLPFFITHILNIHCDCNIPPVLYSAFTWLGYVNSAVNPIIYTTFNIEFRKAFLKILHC
CFTR: Cystic fibrosis transmembrane conductance regulator (CFTR, Homo sapiens, UniProt P13569)
Sequence of UniProt P13569 (whole entry, looked up): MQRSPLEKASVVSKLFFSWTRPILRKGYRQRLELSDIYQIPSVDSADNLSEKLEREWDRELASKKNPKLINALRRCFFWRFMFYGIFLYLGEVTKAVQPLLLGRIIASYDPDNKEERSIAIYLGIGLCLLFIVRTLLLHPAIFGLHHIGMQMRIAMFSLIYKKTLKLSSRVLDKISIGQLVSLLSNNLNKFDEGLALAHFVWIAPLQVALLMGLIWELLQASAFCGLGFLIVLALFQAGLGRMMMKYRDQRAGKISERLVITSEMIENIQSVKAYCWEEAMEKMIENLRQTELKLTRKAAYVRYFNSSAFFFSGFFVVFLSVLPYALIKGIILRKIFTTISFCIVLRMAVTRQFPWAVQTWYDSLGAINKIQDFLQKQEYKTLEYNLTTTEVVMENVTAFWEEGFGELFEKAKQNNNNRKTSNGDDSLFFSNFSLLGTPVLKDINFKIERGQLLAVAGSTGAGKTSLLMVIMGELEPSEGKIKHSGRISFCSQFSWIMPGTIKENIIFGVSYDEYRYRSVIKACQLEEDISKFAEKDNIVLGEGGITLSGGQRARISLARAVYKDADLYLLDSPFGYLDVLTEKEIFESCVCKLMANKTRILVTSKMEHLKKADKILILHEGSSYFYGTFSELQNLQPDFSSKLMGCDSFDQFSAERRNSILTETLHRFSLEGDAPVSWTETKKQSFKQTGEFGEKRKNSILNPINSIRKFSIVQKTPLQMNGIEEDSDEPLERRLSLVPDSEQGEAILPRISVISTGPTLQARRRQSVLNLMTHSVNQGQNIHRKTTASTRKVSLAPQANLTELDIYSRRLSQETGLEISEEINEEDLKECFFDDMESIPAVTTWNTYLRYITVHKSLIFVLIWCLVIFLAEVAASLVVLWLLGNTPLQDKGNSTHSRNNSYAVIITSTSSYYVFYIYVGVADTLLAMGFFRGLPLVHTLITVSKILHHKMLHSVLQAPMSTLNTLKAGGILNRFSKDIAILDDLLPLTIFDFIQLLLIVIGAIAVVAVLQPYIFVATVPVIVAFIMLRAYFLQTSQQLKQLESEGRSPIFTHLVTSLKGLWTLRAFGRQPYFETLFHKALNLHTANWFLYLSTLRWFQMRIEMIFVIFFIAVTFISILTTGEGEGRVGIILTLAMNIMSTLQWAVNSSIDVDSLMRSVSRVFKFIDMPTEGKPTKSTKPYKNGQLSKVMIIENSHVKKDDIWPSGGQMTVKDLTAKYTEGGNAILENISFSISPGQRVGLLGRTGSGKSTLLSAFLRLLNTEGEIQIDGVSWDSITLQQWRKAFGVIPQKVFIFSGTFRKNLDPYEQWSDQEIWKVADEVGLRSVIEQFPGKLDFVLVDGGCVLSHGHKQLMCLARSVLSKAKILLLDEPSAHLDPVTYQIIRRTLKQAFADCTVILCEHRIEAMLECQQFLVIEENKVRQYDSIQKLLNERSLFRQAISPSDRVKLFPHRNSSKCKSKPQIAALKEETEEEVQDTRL
Astl: Astacin-like metalloendopeptidase (Astl, Mus musculus, UniProt Q6HA09)
Sequence of UniProt Q6HA09 (whole entry, looked up): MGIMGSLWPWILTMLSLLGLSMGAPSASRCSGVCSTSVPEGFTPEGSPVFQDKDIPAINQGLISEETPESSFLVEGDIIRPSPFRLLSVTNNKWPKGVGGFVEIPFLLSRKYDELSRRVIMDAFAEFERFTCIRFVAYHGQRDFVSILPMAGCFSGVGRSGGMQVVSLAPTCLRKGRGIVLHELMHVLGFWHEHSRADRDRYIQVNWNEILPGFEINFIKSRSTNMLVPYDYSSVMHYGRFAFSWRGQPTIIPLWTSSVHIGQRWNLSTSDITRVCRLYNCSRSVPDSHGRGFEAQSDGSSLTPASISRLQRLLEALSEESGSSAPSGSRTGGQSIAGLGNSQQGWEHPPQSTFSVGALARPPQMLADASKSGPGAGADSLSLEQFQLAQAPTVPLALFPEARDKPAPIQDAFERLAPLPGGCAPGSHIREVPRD
EPHA2: Ephrin type-A receptor 2 (EPHA2, Homo sapiens, UniProt P29317)
Sequence of UniProt P29317 (whole entry, looked up): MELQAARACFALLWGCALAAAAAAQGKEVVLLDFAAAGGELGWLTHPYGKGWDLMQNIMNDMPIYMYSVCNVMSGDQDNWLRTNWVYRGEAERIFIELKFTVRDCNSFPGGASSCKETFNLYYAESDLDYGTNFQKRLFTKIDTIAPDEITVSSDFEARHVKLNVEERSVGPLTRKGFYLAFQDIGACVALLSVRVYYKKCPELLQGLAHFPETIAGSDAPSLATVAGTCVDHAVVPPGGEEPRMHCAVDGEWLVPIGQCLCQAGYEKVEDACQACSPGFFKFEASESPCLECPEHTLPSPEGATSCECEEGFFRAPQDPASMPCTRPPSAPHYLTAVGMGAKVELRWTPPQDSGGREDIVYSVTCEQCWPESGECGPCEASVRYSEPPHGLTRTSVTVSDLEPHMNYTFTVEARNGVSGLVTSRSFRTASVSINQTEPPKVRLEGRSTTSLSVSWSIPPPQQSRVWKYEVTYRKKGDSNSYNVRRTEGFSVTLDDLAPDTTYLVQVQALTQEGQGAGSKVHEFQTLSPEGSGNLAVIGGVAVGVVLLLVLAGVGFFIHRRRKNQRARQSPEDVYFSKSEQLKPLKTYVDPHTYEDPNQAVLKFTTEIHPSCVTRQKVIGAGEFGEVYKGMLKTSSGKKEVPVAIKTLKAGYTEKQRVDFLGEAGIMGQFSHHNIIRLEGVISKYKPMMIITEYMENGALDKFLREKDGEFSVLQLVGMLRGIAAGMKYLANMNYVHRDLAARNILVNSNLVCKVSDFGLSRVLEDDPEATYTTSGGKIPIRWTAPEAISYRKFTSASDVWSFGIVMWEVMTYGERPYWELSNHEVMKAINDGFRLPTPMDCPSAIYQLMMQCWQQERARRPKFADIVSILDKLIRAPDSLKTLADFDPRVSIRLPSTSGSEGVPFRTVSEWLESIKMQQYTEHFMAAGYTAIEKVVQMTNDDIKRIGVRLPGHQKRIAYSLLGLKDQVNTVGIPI
bglA: bglA (Thermotoga maritima, UniProt Q08638)
Sequence of UniProt Q08638 (whole entry, looked up): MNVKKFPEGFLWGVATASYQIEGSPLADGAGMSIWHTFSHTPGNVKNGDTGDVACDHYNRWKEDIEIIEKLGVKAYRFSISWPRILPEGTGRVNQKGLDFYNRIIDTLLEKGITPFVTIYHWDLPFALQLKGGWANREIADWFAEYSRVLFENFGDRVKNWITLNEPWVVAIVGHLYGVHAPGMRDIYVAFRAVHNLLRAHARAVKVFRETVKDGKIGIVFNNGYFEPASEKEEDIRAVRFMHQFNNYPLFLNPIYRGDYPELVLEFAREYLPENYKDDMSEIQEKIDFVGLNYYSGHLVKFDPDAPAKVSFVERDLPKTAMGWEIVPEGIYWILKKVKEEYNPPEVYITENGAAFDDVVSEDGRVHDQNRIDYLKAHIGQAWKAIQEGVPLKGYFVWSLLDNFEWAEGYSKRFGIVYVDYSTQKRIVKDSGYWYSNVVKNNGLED
Sequence of UniProt O15229 (whole entry, looked up): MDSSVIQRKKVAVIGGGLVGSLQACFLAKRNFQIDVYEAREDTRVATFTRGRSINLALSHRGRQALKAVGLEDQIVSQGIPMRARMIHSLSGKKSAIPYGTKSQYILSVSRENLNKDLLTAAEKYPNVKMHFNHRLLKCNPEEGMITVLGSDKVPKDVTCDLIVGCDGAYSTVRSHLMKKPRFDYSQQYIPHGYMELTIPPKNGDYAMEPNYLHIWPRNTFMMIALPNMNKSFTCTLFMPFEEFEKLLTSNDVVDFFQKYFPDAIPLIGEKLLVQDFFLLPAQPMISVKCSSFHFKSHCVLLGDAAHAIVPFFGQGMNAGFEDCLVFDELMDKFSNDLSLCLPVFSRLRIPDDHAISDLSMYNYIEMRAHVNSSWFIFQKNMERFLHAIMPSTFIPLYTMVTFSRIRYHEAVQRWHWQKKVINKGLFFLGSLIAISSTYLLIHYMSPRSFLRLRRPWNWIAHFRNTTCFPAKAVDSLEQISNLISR
Sequence of UniProt P00374 (whole entry, looked up): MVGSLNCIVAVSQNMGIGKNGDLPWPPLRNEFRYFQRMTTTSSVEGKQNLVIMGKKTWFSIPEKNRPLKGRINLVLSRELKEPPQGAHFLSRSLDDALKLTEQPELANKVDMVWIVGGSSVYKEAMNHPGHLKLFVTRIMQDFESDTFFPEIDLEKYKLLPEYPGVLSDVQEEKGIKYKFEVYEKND
Sequence of UniProt Q9Y251 (whole entry, looked up): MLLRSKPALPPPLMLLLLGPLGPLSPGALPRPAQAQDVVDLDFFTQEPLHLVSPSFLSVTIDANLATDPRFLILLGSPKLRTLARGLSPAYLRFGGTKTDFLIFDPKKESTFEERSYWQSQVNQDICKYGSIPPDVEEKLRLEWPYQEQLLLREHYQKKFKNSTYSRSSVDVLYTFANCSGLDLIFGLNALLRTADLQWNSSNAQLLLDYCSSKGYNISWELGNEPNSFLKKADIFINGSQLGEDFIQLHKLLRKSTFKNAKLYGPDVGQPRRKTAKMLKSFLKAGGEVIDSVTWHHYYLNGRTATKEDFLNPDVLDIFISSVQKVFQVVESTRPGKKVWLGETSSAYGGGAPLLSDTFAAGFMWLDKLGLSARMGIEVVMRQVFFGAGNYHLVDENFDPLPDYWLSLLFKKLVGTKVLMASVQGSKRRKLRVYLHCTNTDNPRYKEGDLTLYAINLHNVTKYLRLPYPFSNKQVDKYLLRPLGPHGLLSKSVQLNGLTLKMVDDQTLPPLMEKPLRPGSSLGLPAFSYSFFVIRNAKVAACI

| SMILES | target | assay | test system | setting | quantity | value |
| --- | --- | --- | --- | --- | --- | --- |
| O=C(O)C1CC1C(=O)c1ccc(Cl)c(Cl)c1 (stereo not shown) | Kynurenine 3-monooxygenase (KMO, Homo sapiens, UniProt O15229) | enzyme activity, inhibitor, HPLC | – | pH 8.5 | Ki | 0.0567 µM |
| CC(C)N1C[C@H](C)[C@H](NC(=O)c2cc3ccc(Br)cc3[nH]2)C1 | DRD2 | ligand displacement, radioligand | – | – | Ki | > 10 µM |
| CCOC(=O)CSc1nc2ccccc2c(=O)n1-c1ccccc1C | CFTR | – | – | concentration not given | Ki | ~5 µM |
| O=C(NC1(Cc2ccccc2)CC1)c1cc(N2CCCCC2)ccn1 | Sodium- and chloride-dependent creatine transporter 1 (SLC6A8, Homo sapiens, UniProt P48029, P544L) | creatine transport rescue | U-2 OS overexpressing SLC6A8 | 24 h | EC50 | 2 µM |
| NCCCCCO[C@H]1O[C@H](COS(=O)(=O)O)[C@@H](O[C@@H]2O[C@@H](C(=O)O)[C@@H](O[C@H]3O[C@H](COS(=O)(=O)O)[C@@H](O[C@@H]4O[C@@H](C(=O)O)[C@@H](O[C@H]5O[C@H](COS(=O)(=O)O)[C@@H](O[C@@H]6O[C@@H](C(=O)O)[C@@H](O[C@H]7O[C@H](COS(=O)(=O)O)[C@@H](O[C@@H]8O[C@@H](C(=O)O)[C@@H](O)[C@H](O)[C@H]8OS(=O)(=O)O)[C@H](O)[C@H]7NS(=O)(=O)O)[C@H](O)[C@H]6OS(=O)(=O)O)[C@H](O)[C@H]5NS(=O)(=O)O)[C@H](O)[C@H]4OS(=O)(=O)O)[C@H](O)[C@H]3NS(=O)(=O)O)[C@H](O)[C@H]2OS(=O)(=O)O)[C@H](O)[C@H]1NS(=O)(=O)O | Heparanase (HPSE, Homo sapiens, UniProt Q9Y251) | enzyme activity, inhibitor, absorbance | – | – | Ki | 4.4 µM |
| O=C(CCN(Cc1ccc(Cl)cc1F)Cc1ccc(Cl)cc1F)NO | Astl | enzyme activity, inhibitor, fluorogenic | – | pH 7.4, 37 °C, apparent Ki, Morrison equation, added: 25 µM substrate | Ki | 2.13 ± 0.21 µM |
| CNC(=O)C1CCN(c2cc(C)c(F)cc2NC(=O)c2ccc(-c3c(C)ccc4[nH]ncc34)c(C)c2)CC1 | EPHA2 | enzyme activity, inhibitor | – | – | Ki | 0.0073 µM and < 0.01 µM |
| CC(C)(Sc1nc2ncccc2n1Cc1ccc(Br)c2ccccc12)C(=O)O | Solute carrier family 22 member 12 (SLC22A12, Homo sapiens, UniProt Q96S37) | transporter uptake, inhibitor, radiometric | – | – | Ki | 0.079 µM |
| CCOC(=O)C1CCN(C(=O)Cn2cnc3sc4c(c3c2=O)CCCC4)CC1 | CFTR | – | – | concentration not given | Ki | ~5 µM |
| NCCN1C(=O)c2cccc3cccc(c23)C1=O | Chitooligosaccharidolytic beta-N-acetylglucosaminidase (Ostrinia furnacalis, UniProt Q06GJ0) | inhibitor | – | pH 6.0, 25 °C, added: pNP-β-GlcNAc | Ki | > 100 µM |
| O=C(CN(Cc1cccc(C(=O)O)c1)Cc1cccc(C(=O)O)c1)NO | Astl | enzyme activity, inhibitor, fluorogenic | – | pH 7.4, 37 °C, apparent Ki, Morrison equation, added: 25 µM substrate | Ki | 2.16 ± 0.02 µM |
| OC[C@@H](CNCc1cn2cc(Cl)ccc2n1)CC1CCCC1 | DRD2 | ligand displacement, radioligand | – | – | Ki | 4.78 µM |
| CCCCN1[C@H](CCC)[C@H](O)[C@@H](O)[C@H](O)[C@H]1CO | bglA | competitive inhibitor | – | added: p-nitrophenyl glucopyranoside | Ki | > 2000 µM |
| CNC(=O)C1CCN(c2ccccc2NC(=O)c2ccc(-c3c(C)ccc4[nH]ncc34)c(C)c2)CC1 | EPHA2 | enzyme activity, inhibitor | – | – | Ki | 0.0007 µM |
| CCCCCCCCNC(=S)N1[C@H](CCC)[C@H](O)[C@@H](O)[C@H](O)[C@H]1CO | bglA | competitive inhibitor | – | added: p-nitrophenyl glucopyranoside | Ki | > 2000 µM |
| COc1ccc2[nH]c(NC(=N)N)nc2c1 | Dihydrofolate reductase (DHFR, Homo sapiens, UniProt P00374) | inhibitor | – | – | Ki | 18.1 µM |

A few entries again:
| SMILES | target | assay | test system | setting | quantity | value |
| --- | --- | --- | --- | --- | --- | --- |
| CC(C)N1C[C@H](C)[C@H](NC(=O)c2cc3ccc(Br)cc3[nH]2)C1 | DRD2 | ligand displacement, radioligand | – | – | Ki | > 10 µM |
